Measurements gathered from unrelated publications.
Every numbered part comes from another study and shows a few of its results, in no order.
Sequence of UniProt P11362 (whole entry, looked up): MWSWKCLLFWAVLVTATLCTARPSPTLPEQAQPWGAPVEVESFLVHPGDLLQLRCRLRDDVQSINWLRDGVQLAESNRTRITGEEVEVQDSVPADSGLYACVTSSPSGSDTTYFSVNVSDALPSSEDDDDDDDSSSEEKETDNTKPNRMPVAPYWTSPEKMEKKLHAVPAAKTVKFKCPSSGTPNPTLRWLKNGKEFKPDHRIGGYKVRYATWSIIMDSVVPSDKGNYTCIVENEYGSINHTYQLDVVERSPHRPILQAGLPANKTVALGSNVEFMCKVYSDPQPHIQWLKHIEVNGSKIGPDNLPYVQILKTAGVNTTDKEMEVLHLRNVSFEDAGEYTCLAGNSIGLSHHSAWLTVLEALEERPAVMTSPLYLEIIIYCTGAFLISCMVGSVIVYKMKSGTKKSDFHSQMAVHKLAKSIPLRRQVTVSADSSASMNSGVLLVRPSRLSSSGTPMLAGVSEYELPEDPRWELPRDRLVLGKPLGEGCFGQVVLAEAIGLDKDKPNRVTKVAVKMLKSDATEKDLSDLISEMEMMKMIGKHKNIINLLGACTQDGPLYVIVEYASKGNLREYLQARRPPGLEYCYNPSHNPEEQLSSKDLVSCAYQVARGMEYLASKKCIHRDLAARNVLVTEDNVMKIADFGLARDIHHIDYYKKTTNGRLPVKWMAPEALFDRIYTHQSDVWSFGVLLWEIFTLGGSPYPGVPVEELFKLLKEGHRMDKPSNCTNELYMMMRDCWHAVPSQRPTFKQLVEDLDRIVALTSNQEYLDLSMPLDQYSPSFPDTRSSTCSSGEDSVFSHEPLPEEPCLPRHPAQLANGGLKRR
Sequence of UniProt Q9Y6R4 (whole entry, looked up): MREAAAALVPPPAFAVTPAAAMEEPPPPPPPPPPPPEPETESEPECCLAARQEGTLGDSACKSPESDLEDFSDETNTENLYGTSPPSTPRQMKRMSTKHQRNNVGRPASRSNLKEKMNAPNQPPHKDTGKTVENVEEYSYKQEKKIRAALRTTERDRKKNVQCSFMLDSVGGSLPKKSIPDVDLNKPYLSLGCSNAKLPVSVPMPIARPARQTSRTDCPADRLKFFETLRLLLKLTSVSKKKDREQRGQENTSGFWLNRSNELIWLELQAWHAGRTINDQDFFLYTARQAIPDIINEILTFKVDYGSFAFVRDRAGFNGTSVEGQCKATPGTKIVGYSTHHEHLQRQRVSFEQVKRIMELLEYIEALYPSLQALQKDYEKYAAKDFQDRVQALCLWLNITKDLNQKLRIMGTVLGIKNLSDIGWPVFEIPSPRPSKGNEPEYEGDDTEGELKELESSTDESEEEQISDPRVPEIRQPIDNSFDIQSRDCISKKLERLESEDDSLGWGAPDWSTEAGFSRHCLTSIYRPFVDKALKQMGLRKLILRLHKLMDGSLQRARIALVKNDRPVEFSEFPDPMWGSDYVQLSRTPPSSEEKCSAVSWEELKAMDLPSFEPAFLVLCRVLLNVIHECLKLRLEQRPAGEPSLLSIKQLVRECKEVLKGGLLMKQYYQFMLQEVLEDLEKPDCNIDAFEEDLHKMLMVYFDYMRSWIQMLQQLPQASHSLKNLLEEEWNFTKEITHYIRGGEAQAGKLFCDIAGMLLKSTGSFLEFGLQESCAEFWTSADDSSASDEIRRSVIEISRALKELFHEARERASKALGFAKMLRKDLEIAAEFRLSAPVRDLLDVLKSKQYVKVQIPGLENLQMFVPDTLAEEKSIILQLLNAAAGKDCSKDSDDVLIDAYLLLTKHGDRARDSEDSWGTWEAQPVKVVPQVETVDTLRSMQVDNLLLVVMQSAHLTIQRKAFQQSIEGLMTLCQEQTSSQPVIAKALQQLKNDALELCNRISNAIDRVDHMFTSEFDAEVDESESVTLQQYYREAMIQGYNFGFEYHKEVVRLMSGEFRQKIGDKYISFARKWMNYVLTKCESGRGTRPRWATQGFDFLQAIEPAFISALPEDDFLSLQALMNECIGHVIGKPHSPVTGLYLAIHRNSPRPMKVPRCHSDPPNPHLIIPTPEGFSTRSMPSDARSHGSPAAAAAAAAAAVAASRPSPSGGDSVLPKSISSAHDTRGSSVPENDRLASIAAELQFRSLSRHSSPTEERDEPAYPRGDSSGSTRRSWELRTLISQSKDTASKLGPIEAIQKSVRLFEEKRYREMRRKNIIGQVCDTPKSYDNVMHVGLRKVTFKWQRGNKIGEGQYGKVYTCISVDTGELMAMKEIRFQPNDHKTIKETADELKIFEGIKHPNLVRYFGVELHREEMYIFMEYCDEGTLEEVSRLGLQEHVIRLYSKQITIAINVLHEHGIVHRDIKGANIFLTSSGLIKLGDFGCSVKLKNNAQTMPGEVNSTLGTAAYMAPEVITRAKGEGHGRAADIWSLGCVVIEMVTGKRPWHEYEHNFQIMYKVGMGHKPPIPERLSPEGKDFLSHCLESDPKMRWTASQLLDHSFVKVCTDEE
Sequence of UniProt P27361 (whole entry, looked up): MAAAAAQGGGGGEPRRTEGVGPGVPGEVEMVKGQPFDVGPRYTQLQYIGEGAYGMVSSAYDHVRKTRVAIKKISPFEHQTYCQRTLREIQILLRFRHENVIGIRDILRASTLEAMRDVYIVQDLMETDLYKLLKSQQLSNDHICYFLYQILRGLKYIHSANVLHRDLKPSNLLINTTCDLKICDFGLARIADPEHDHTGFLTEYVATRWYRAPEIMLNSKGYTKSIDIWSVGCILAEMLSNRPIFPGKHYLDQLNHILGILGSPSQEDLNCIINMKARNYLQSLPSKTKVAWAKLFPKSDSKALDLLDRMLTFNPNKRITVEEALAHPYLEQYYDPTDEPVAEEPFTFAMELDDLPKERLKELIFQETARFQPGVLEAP
Sequence of UniProt P29320 (whole entry, looked up): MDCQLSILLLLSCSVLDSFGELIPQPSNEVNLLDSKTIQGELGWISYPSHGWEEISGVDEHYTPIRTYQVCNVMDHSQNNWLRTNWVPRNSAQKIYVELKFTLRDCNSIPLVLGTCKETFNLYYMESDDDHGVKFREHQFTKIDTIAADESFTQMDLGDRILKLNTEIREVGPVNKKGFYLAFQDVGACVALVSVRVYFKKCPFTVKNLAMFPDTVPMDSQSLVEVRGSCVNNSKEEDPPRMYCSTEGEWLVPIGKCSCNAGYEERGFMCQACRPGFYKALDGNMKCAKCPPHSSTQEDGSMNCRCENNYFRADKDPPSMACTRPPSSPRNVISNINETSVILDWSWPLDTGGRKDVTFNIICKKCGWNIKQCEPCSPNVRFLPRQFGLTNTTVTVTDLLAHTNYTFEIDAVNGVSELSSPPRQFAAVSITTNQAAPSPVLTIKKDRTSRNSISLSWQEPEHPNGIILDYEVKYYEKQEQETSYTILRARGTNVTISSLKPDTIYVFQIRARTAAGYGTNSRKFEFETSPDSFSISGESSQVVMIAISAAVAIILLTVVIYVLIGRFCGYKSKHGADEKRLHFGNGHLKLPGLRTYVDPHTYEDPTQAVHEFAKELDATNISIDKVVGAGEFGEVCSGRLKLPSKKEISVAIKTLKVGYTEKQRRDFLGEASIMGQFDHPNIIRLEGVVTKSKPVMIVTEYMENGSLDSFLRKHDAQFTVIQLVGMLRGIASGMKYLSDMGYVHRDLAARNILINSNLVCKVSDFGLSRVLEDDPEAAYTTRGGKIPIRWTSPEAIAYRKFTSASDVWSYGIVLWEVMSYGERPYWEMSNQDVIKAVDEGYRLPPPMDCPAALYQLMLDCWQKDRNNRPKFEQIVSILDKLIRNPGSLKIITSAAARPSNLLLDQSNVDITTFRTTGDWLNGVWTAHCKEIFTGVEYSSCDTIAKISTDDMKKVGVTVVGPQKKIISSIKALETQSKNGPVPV
Sequence of UniProt Q6ZN16 (whole entry, looked up): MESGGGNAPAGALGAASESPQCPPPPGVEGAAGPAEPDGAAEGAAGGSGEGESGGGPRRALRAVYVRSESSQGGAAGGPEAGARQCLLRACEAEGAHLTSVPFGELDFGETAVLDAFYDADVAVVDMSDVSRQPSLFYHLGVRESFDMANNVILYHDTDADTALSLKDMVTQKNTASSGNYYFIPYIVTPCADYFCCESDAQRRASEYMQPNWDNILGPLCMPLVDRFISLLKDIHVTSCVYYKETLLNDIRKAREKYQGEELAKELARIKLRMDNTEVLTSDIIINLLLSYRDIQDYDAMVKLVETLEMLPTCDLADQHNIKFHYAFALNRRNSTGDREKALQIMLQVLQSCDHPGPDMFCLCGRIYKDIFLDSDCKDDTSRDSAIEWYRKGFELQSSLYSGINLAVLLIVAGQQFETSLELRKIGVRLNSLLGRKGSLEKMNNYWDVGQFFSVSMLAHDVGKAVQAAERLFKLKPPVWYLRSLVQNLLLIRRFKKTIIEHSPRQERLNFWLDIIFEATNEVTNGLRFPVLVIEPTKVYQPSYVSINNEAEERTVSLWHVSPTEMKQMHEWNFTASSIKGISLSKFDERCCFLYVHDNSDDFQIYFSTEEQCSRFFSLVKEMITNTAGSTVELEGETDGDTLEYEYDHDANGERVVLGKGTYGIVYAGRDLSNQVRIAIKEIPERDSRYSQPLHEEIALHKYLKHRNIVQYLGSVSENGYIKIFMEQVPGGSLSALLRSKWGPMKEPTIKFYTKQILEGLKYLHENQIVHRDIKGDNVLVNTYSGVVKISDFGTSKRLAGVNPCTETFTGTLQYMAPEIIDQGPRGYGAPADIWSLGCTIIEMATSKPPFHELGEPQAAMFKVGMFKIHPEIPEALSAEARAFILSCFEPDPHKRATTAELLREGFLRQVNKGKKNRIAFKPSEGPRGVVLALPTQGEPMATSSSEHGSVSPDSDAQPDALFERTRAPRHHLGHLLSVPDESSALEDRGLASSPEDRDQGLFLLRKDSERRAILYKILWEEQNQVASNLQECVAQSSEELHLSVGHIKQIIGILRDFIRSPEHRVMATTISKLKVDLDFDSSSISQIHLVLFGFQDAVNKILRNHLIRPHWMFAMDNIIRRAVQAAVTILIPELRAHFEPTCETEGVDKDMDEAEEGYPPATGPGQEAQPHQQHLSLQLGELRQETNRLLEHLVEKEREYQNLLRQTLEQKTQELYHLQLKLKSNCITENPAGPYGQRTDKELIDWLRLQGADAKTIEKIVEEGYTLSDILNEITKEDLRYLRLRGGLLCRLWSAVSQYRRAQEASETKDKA

Set 1 — cell line: mouse MPNST tumor cells; technique: high-content nuclear imaging; refers to: cell number; concentration: 10 µM; time: 12 h; notes: mean of 2 replicates; baseline: plate mean; reading: higher = more cells
Compound | nuclei count [z-score]
Cc1cc(=O)n(C)c2cc(N3C(=O)CC[C@@H](NS(=O)(=O)CC(C)C)[C@@H]3c3ccc(Cl)cc3)ccc12 | 1.52
CC(=O)OC(C)C[N+](C)(C)C (stereo not shown) | 1.48
Cc1c(C(=O)NCc2cccnc2)nn(-c2ccc(Cl)cc2Cl)c1-c1ccc(Cl)cc1 | -0.855
Cn1ncc2c(N3CCOCC3)nc(-c3cccc(O)c3)nc21 | -0.79
NS(=O)(=O)c1cc(C2(O)NC(=O)c3ccccc32)ccc1Cl (stereo not shown) | 0.407
NS(=O)(=O)c1nn2cc(-c3ccccc3)nc2s1 | -3.27

Set 2 — effect on: cell-free assay; technique: competition with immobilised ligand; concentration: 1 µM
SMILES: CN(C)CC#Cc1ccc(OCCCc2sc(N3CCc4cccc(C(=O)Nc5nc6ccccc6s5)c4C3)nc2C(=O)O)c(F)c1
target | remaining binding
DMPK (Homo sapiens, UniProt Q09013) | 100%
BMP2K (Homo sapiens, UniProt Q9NSY1) | 97%
LIM domain kinase 2 (LIMK2, Homo sapiens, UniProt P53671) | 96%
MAP3K15 (Homo sapiens, UniProt Q6ZN16) | 99%
FGFR1 (Homo sapiens, UniProt P11362) | 100%
MAP3K4 (Homo sapiens, UniProt Q9Y6R4) | 100%

Set 3 — cell line: A-375; concentration: 100 µM; time: 18 h
Structure (SMILES) | viability [%]
CC(C)C[C@H](NC(=O)[C@H](CCc1ccccc1)NC(=O)CN1CCOCC1)C(=O)N[C@@H](Cc1ccccc1)C(=O)N[C@@H](CC(C)C)C(=O)[C@@]1(C)CO1 | 16.2
Cc1c(-c2ccccc2)oc2c(C(=O)OCCN3CCCCC3)cccc2c1=O | 18.9
CCCCc1oc2ccc(NS(C)(=O)=O)cc2c1C(=O)c1ccc(OCCCN(CCCC)CCCC)cc1 | 9.83
CO[C@@H]1[C@@H](O[C@@H]2O[C@H](C)[C@@H](O[C@H]3C[C@@](C)(O)[C@@H](O)[C@H](C)O3)[C@H](N(C)C)[C@H]2O)[C@@H](CC=O)C[C@@H](C)[C@@H](O[C@H]2CC[C@H](N(C)C)[C@@H](C)O2)/C=C/C=C/C[C@@H](C)OC(=O)C[C@H]1OC(C)=O | 79.6
C=CCc1ccc(O)c(-c2cc(CC=C)ccc2O)c1 | 7.75
O=C1C(O)=C([C@H]2CC[C@H](c3ccc(Cl)cc3)CC2)C(=O)c2ccccc21 | 20.8
CN(C(=O)CN(CCO)CC(=O)N(C)C(C)(C)Cc1ccccc1)C(C)(C)Cc1ccccc1 | 9.04

Set 4 — effect on: enzyme activity; action: inhibitor; concentration: 0.5 µM; baseline: control
Structure (SMILES): NCCNc1ncc(C(N)=O)c(Nc2cccc(C(F)(F)F)c2)n1
target | remaining activity [%]
EPHA3 (Homo sapiens, UniProt P29320) | 92.9
GRK7 (Homo sapiens, UniProt Q8WTQ7) | 77.6
MERTK (Homo sapiens, UniProt Q12866) | 88.4
MAPKAPK2 (Homo sapiens, UniProt P49137) | 99.2
FRK (Homo sapiens, UniProt P42685) | 89.4
FGFR3 (Homo sapiens, UniProt P22607) | 97.5
MAP3K5 (Homo sapiens, UniProt Q99683) | 107
ULK2 (Homo sapiens, UniProt Q8IYT8) | 91.4
FGFR1 (Homo sapiens, UniProt P11362) | 90
RPS6KA2 (Homo sapiens, UniProt Q15349) | 73.8
TBK1 (Homo sapiens, UniProt Q9UHD2) | 86
MAPK3 (Homo sapiens, UniProt P27361) | 100

Repeated from above (set 1):
Compound | nuclei count [z-score]
Cc1c(C(=O)NCc2cccnc2)nn(-c2ccc(Cl)cc2Cl)c1-c1ccc(Cl)cc1 | -0.855
Cn1ncc2c(N3CCOCC3)nc(-c3cccc(O)c3)nc21 | -0.79
